Measured values gathered from unrelated publications.
Every numbered part comes from another study and shows a few of its results, in no order.

Block 1 — technique: RNA Bind-n-Seq; form: RNA; medium: in vitro; concentration: 365 nM; baseline: no-protein control; reading: higher = stronger binding
Target: RNA binding protein fox-1 homolog 2, RRM domain, GST-SBP tag (RBFOX2, Homo sapiens, UniProt O43251-10, residues 100-194)
Setting: natural RNA segment, single round, ends assumed
Constant ends, left off below: GGGAGUUCUACAGUCCGACGAUC … UGGAAUUCUCGGGUGCCAA
Residues (chain): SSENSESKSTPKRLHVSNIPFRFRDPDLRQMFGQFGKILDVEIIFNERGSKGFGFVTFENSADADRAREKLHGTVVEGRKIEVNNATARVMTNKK
| Sequence | RBNS enrichment (R) |
| --- | --- |
| CAAAGUAUGAUGGCCCUGUAGCCUCUGACUAGUCCUGAAACAGAAGGCUGCACUCUAGGCUGAACCAUGCUAAAAGCCCAUGCUUAAAUAAAAAAUUAUGUCCAAAAUCU | 0.671 |
| UCUUCUAUACCCUUCUACCUGCCCUUAGAUCUCCAUUUUUAUCAAAUAGUACAUUGCAUUUUGAAGUUUUGGGUUUUGUCCUUCAUCUUUCCCUUUCCCUUCAAAUCUUU | 0.684 |
| CCCCUUUACUUUUUGAAGCCAUACAAUGGAUGUCUAUAUGUUGCCUUUUUGAAGAUUAGGUGGUUUUGCUCUUUAACAUUUUUGUGACUUUGGUUUAUUUUCUUCCCAUG | 0.82 |
| AAGCAAGAUGCCCACACAACAGGCUUAUUUUCUGUGAAGGAACCAACUGAUCUCCCCCACCCUUGGAUUAGAGUUCCUGCUCUACCUUACCCACAGAUAACACAUGUUGU | 0.27 |
| GGCCAGCUGAGGGGAAGUUGCUGGUGAGUUUCCUUUUCUCCAUUUCUAGCAUAUGGACACCUGGCCUCUGCUUGAGCACUUAGGUGACAGGAACUUCCGCACCUCCUGAG | 0.593 |
| UCUAGGCCAGUGCUUUACCACUUAGCUAUACCCAGUCCUGUGUUACCUUGCUUUUGUGAACACGUCACUGCAUAGGUUCUGAGAGGACCUGGCUGGGUUUAUUUAAGAGU | 0.323 |
| CUCCUGAUCCUGACCUCUGCAGCCUCUUUAACUGCCCCUCCUAUGGCCCCUGCCCUUCUCUUUCUCCCAGAUGGAUCCUUCCAGCAGAGAAAUAAAGCCUUAUCCAUUAC | 0.379 |
| UGGCCUCACCCUCCCACCCCAUGUAAAUAUUACUCUGUCCUCUGGGGGGCGCUCUAGGGAGCCCCUUGUGCAGAUGCUCUUUAAAUAAUAAAGGUGGUUUUGAUUAAUGG | 0.352 |
| UCUAUGGUGGAUGUUUAUGCUACGGUCCGCCAAUAGAAAAUGGAUUCUAUUAUGACAUGUACCUCGAAGAAGGGGGUGUGUCUAGCAAUGAUUUCUCUUCUCUGGAGGCU | 0.486 |
| UGCUGUGCUUCCGGGCAGUGCCAGGCACUCCCUUGUGGGGCUCAUGCUCCUUCUACCUACCGGUCAGUGCAUUCAGAAGUGGACAGCUCCCGGAAGGCCGAGUUCUGGUA | 0.403 |
| GUCAGGGACUUGAUAACCUGAUGUUUGAUGUAGAUCCCUGCUGGGGAGUCCACAACUAUGAAUGUAUUUACUUCCAACAUUUCCCAAAAUGAAAACUAUAAAUUGCAAGU | 0.825 |
| AUGCACAACUUGCUUGUACAGGUCAACUGUCCAUCUUGGGUACUAUUUAACUGUCAAACAGAGGAAUCUGUGUUUGUUACAAUAAUAUAACAGAUGCCUUGAAGGACCCG | 0.153 |

Block 2 — technique: aptamer microarray, sandwich; form: DNA with 2'F-ANA; medium: in vitro; concentration: 200 nM; with: Cy3 exosite-II aptamer, 400 nM; reading: higher = stronger binding; sequence: GGTTGGTGTGGTTGG
Target: Prothrombin, mature alpha-thrombin (F2, Homo sapiens, UniProt P00734)
Setting: whole 15-mer aptamer, many near background
| Modification | mean fluorescence intensity [a.u.] |
| --- | --- |
| 2'F-ANA at 2 3 4 5 6 7 8 10 11 12 13 15 | 71.4 |
| 2'F-ANA at 2 3 5 6 9 10 12 13 14 15 | 50.2 |
| 2'F-ANA at 4 5 6 7 11 12 13 | 73.4 |
| 2'F-ANA at 1 2 3 4 6 8 11 12 13 14 15 | 69.2 |
| 2'F-ANA at 4 6 7 10 11 14 | 58.2 |
| 2'F-ANA at 1 2 4 7 8 9 10 11 12 13 14 | 52.9 |
| 2'F-ANA at 2 4 7 8 9 12 14 15 | 154 |
| 2'F-ANA at 3 5 6 9 10 12 14 15 | 52.5 |
| 2'F-ANA at 2 4 5 6 7 11 12 15 | 89.8 |
| 2'F-ANA at 2 7 9 10 11 12 | 167 |
| 2'F-ANA at 1 6 8 10 12 14 15 | 48.3 |

Block 3 — technique: protein binding microarray; form: double-stranded DNA, one strand shown; medium: in vitro; concentration: not given; baseline: not given; reading: higher = stronger binding
Target: Histone acetyltransferase KAT6A, both winged helices, GST fusion (KAT6A, Homo sapiens, UniProt Q92794, residues 1-181)
Setting: 8-mer, flanks averaged, mean of 2 arrays, mostly near background
Construct (chain): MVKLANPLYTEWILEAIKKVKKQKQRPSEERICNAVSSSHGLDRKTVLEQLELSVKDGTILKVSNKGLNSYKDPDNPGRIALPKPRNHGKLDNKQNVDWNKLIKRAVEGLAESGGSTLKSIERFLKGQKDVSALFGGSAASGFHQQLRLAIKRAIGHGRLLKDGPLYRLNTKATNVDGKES
| Sequence | E-score |
| --- | --- |
| CTATGGTC | -0.119 |
| ACTGGACG | 0.0869 |
| GGCCTTAA | -0.0941 |
| CATTCGAC | 0.0116 |
| CCCGTTCG | 0.182 |
| ACCCGGCC | 0.226 |
| TAAAATAA | -0.0567 |
| CATACAGC | 0.124 |
| CTTAAACA | 0.0702 |
| ATGTGTAG | -0.0397 |

Further values, each from its own experiment
| Molecule | target | assay | test system | conditions | scale | measurement | value |
| --- | --- | --- | --- | --- | --- | --- | --- |
| PhoQ, residues 284 288 289 292 302 303 AGGCYF | PhoP, residues 12 14 15 18 19 IQFRS (Escherichia coli, UniProt P23836) | Sort-seq, measured: YFP reporter | E. coli | PhoQ-PhoP variant library, with: 10 µM Mg2+ | baseline: high Mg2+ state, higher = stronger signaling | fold induction | 6.21 |

Repeated from above (block 3):
| Sequence | E-score |
| --- | --- |
| ACCCGGCC | 0.226 |
| TAAAATAA | -0.0567 |
| CATACAGC | 0.124 |
